Measured values pooled from the literature.
Each numbered part is a random draw from the data of one study; scales do not carry over between parts. Substitutions count along the parent as printed.

Set 1
Target: RNA binding protein fox-1 homolog 2, RRM domain, GST-SBP tag (RBFOX2, Homo sapiens, UniProt O43251-10, residues 100-194)
Technique: RNA Bind-n-Seq
Form: RNA
Sample: in vitro
Tested at: 365 nM
Notes: natural RNA segment, single round, ends assumed
Reference: no-protein control
Reading: higher = stronger binding
`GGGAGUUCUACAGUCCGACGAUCGUGGGCACAAAAUGACAGAACAUAGGACAUUCUAAAGUUCCUUGAUUUGAUCAUUAUAAGAAGUGUGGGACUCAAGCACAGGAAACUGAACUCUUUUGGUGUCAUUGGAUUGGAAUUCUCGGGUGCCAA` — result for “RBNS enrichment (R)”: 0.776.
`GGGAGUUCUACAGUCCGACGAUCGUUGCCGAGCCGAGAGCAUUGGAUCCUCCCCGACUGUGGCUAGUUGUCUGUCCGGUGGCUGGGAGGGGGUGUGGUGGGAAAAAGUCGGAAUCUCUGCAAUCUGUGUCAUGUGGAAUUCUCGGGUGCCAA` — result for “RBNS enrichment (R)”: 0.76.
`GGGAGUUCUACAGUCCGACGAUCCCUGCUCUAGGGCCUGCCCAGCCCUGAGGGAGGCUAGUCAGCGCCUCCCUACUGCGCCCCUGUAGGCAGGAGGAAGCAGCCCAUCAGCCUAGGAAGCCAACAGCAGGGCAUGGAAUUCUCGGGUGCCAA` — result for “RBNS enrichment (R)”: 0.387.
`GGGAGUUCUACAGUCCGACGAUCGGGAGGUCUGGAUGGAUCUGUGUAGGAGUUCCCUGUAGAUAAAUUACUGAUCCCCCAUCUACUAUCCCCAGUAUGUAAUGGCUGAAUUAAUAUGUAAUCAACUGCAUUGUUGGAAUUCUCGGGUGCCAA` — result for “RBNS enrichment (R)”: 0.509.
Under “RBNS enrichment (R)”, `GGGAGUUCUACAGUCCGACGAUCUCCAUCCAUCCAUUCAUCCAUCCCCAGUGUUCCAUGUGUCACCUUCUCCUUUUCCAGCAUCCCUAUCCUAUGGUGCUUUGGUGGUGAACUAUGGCAGUCCUGACUUGCUGUGGAAUUCUCGGGUGCCAA` is recorded as 1.19.
Under “RBNS enrichment (R)”, `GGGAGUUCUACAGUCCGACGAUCGUCAGCUUAUUUCUGGGGAAGGUGUUGAGCUCUUAUACAUGAAAAUGGAUAUAGGCUAUUCUCUGGGAUGAGUGUCAUUUCAAUGCUUUAUAAAUCCAUGAAGCUGCUUGUGGAAUUCUCGGGUGCCAA` is recorded as 0.839.
`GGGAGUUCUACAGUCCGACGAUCUCCAUCAGACCUCUUCCAUUUUGCACAGGGAGUGCAGGAGGUGAAUGUUCACUUUCUGUUCUCCAGUGUCACUGUUCUGUUUCCACGGGAUGGAAAGCGCAUGGGCCUGUUGGAAUUCUCGGGUGCCAA` — result for “RBNS enrichment (R)”: 0.689.
For `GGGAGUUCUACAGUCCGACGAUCAAAUGUGACUAUAGUCAUCUUAAUGGGCAUCUUGUCCACUGUGCUUCUUAUGUAUUAUGAAAGUGAUAAGAAGACAAAUUAAGUGGGUAUAUUUUAUAAAAUAAAUUCAUUGGAAUUCUCGGGUGCCAA`, “RBNS enrichment (R)” read 0.768.
`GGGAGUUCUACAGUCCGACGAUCGGGGCUUGGAAUAGAGAAACCUAAAGAAGCAUCAUCCCCUCCAUCCCCAACUUCCUCAAAGCCCAAAGCCAAGGGAAGGAUAAAUCAAGGCUCAAGGCUUCCCCAGCAAAUGGAAUUCUCGGGUGCCAA`: “RBNS enrichment (R)” 0.845.
For `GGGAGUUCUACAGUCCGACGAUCCACAAAACUGACACCCCAUCUGGGCUGCGCUCCCCGGGGGGCCUGCAGACCCCAGGACUGCUGGCAGAUUAGUUGCCUGCCAGGAGGAAUUACUUUCCUUGAUCAAAAAAUGGAAUUCUCGGGUGCCAA`, “RBNS enrichment (R)” read 0.528.
Under “RBNS enrichment (R)”, `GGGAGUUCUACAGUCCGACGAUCGAAUAUACUGAAGACAAAGCCUGCGUGAUUAGUUAGAACCGAUGAAUACAGCGUCAGAAGGAUGCCAUAACCAUUCUGUUCCUUUACAGAACUAAAUUGCCGCAGACAGGUGGAAUUCUCGGGUGCCAA` is recorded as 0.57.
Under “RBNS enrichment (R)”, `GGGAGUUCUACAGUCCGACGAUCGAAUUGAUAGAAAUGCUUAAGCAGUUGCCUUUUUUAAACAUCAAUACCAGACCUCUGAAUUUGUAUUUUUUCUUGUUAACCAUUUUAAUUUGUUGGCUGGAUGUAUAAAGUGGAAUUCUCGGGUGCCAA` is recorded as 0.502.

Set 2
Target: CCNE2, cyclin fold, Cln2 fusion (human)
Technique: yeast growth competition, sequencing
Sample: yeast
Notes: weak parent motif
Reference: not given
Reading: higher = stronger binding
Starting sequence: SAMHD1 docking peptide (human); ASKSRVQLFKDDP
For `K3E`, “normalised enrichment score” read -0.177.
For `S2P`, “normalised enrichment score” read 0.121.
`D11K` — result for “normalised enrichment score”: 0.322.
`S2R`: “normalised enrichment score” -0.149.
For `F9P`, “normalised enrichment score” read 0.164.
`D12R`: “normalised enrichment score” 0.589.
`S4Y` — result for “normalised enrichment score”: 0.327.
`R5T` — result for “normalised enrichment score”: -0.106.
`D12L`: “normalised enrichment score” -0.0179.
Under “normalised enrichment score”, `R5W` is recorded as 0.626.
`D12Q` — result for “normalised enrichment score”: 0.101.
For `Q7G`, “normalised enrichment score” read 0.152.
`K10F` — result for “normalised enrichment score”: -0.415.
For `V6P`, “normalised enrichment score” read -0.298.
`F9W`: “normalised enrichment score” 0.329.
For `F9C`, “normalised enrichment score” read 0.128.
For `V6F`, “normalised enrichment score” read 0.296.
Under “normalised enrichment score”, `S4E` is recorded as -0.195.
`S4K`: “normalised enrichment score” 0.0126.
Under “normalised enrichment score”, `D12G` is recorded as 0.0868.
`S2W`: “normalised enrichment score” 0.319.
For `F9Q`, “normalised enrichment score” read 0.0569.
For `D11S`, “normalised enrichment score” read 0.778.
`D11M` — result for “normalised enrichment score”: 0.368.
`K3N`: “normalised enrichment score” -0.225.

Set 3
Target: Prothrombin, mature alpha-thrombin (F2, Homo sapiens, UniProt P00734)
Technique: aptamer microarray, sandwich
Form: DNA with 2'F-ANA
Sample: in vitro
Tested at: 200 nM
Notes: whole 15-mer aptamer, many near background
Added: Cy3 exosite-II aptamer, 400 nM
Reading: higher = stronger binding
Sequence: GGTTGGTGTGGTTGG
`2'F-ANA at 2 5 9 10 13`: “mean fluorescence intensity” 44.1 a.u.
`2'F-ANA at 1 2 4 5 7 8 9 10 11 12 13 14`: “mean fluorescence intensity” 52.1 a.u.
Under “mean fluorescence intensity”, `2'F-ANA at 2 3 4 5 6 8 10 11 14` is recorded as 48.2 a.u.
Under “mean fluorescence intensity”, `2'F-ANA at 1 2 4 5 7 8 10 12 13 14` is recorded as 73 a.u.
`2'F-ANA at 1 2 7 8 11 14`: “mean fluorescence intensity” 57.5 a.u.
`2'F-ANA at 1 3 4 8 12 13 14 15` — result for “mean fluorescence intensity”: 131 a.u.
`2'F-ANA at 2 4 5 6 7 11 14 15` — result for “mean fluorescence intensity”: 47.7 a.u.
Under “mean fluorescence intensity”, `2'F-ANA at 1 2 3 6 7 8 10 14` is recorded as 56 a.u.
`2'F-ANA at 6 7 14 15`: “mean fluorescence intensity” 186 a.u.
`2'F-ANA at 1 2 3 5 7 12 13 14 15`: “mean fluorescence intensity” 46 a.u.
`2'F-ANA at 1 3 4 8 10 13 14 15`: “mean fluorescence intensity” 52.2 a.u.
Under “mean fluorescence intensity”, `2'F-ANA at 1 2 9 11 12 14 15` is recorded as 59.6 a.u.
`2'F-ANA at 2 3 7 8 11 12 13 14 15` — result for “mean fluorescence intensity”: 451 a.u.
For `2'F-ANA at 1 2 5 7 9 11 13 14 15`, “mean fluorescence intensity” read 52.9 a.u.
`2'F-ANA at 1 3 5 7 8 13 14` — result for “mean fluorescence intensity”: 51.8 a.u.
For `2'F-ANA at 1 2 5 6 7 9 11 13`, “mean fluorescence intensity” read 55.2 a.u.
`2'F-ANA at 3 6 7 11 12 13 15`: “mean fluorescence intensity” 1030 a.u.
For `2'F-ANA at 3 8 9 11`, “mean fluorescence intensity” read 1120 a.u.
`2'F-ANA at 1 8 11 12 13 15` — result for “mean fluorescence intensity”: 333 a.u.
For `2'F-ANA at 1 2 4 5 6 10 13 14`, “mean fluorescence intensity” read 74.6 a.u.
`2'F-ANA at 1 2 4 5 8 11 13 14 15`: “mean fluorescence intensity” 46.9 a.u.
`2'F-ANA at 1 4 8 12 13 15` — result for “mean fluorescence intensity”: 282 a.u.
`2'F-ANA at 1 2 3 5 6 7 8 9 10 11 12 13 14 15` — result for “mean fluorescence intensity”: 50.8 a.u.
Under “mean fluorescence intensity”, `2'F-ANA at 4 5 8 9 11 12 13 15` is recorded as 124 a.u.
`2'F-ANA at 2 3 4 5 7 8 9 10 11 14`: “mean fluorescence intensity” 65.9 a.u.

Set 4
Target: Histone acetyltransferase KAT6A, both winged helices, GST fusion (KAT6A, Homo sapiens, UniProt Q92794, residues 1-181)
Technique: protein binding microarray
Form: double-stranded DNA, one strand shown
Sample: in vitro
Tested at: not given
Notes: 8-mer, flanks averaged, mean of 2 arrays, mostly near background
Reference: not given
Reading: higher = stronger binding
Construct (chain): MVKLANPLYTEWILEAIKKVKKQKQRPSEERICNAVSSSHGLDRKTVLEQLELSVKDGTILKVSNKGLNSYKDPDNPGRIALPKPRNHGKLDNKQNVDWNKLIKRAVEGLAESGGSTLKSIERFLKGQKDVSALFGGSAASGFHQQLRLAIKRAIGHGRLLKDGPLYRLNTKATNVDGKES
For `ATAGCTAT`, the E-score was 0.048.
The E-score of `AGCCTAGA` is reported as -0.073.
`CTGTATAC` has an E-score of -0.0662.
The E-score of `AAAGGATG` is reported as -0.122.
`AGAACAAT` has an E-score of -0.0992.
`CGCTTAAA` has an E-score of 0.101.
The E-score of `TCCTAAGA` is reported as -0.174.
`GGACCCCC` has an E-score of 0.021.
The E-score of `CGGTTAGC` is reported as 0.192.
`GGGATCTA` gave an E-score of -0.103.
`ATTGAGTC` has an E-score of -0.0302.
`ACCGCTCA` has an E-score of 0.234.
`ACCATGCC` gave an E-score of 0.0736.
With `GGCCCATA` the E-score was 8.5e-05.
For `GAACGTCA`, the E-score was 0.0163.
`CGTATTTA` has an E-score of -0.00713.
`AGGCTATG` has an E-score of -0.0596.
The E-score of `CATAGCCG` is reported as 0.254.
With `CATGAAGC` the E-score was 0.104.
With `ACTCGCAT` the E-score was 0.0414.
With `AGCGAGGA` the E-score was -0.057.
With `AACACTAA` the E-score was 0.076.
With `AGAATAGG` the E-score was -0.168.
`CCATTCAA` gave an E-score of -0.164.
`GGAGATTA` gave an E-score of -0.00885.

Further values, each from its own experiment
For `PhoQ, residues 284 288 289 292 302 303 TGYLSA`, the fold induction was 8.73 (PhoP, residues 12 14 15 18 19 TPLRH (Escherichia coli, UniProt P23836); Sort-seq, item: YFP reporter; E. coli; PhoQ-PhoP variant library, added: 10 µM Mg2+; reference: high Mg2+ state, higher = stronger signaling).

A few entries again (set 2):
`D12L`: “normalised enrichment score” -0.0179.
Under “normalised enrichment score”, `R5W` is recorded as 0.626.
`D12Q` — result for “normalised enrichment score”: 0.101.
For `Q7G`, “normalised enrichment score” read 0.152.
`K10F` — result for “normalised enrichment score”: -0.415.
For `V6P`, “normalised enrichment score” read -0.298.
